# Results gathered from unrelated publications.
# Every numbered part comes from another study and shows a few of its results, in no order. Changes are numbered by the printed parent chain.

# Study 1 — method: DHFR PCA, deep sequencing; medium: yeast; with: (+)-ABA 0 µM; reference: wild-type fitted maximum; reading: higher = stronger binding
# Target: ABI1, truncated, D143A, DHFR fusion (Arabidopsis thaliana)
# Setting: methotrexate growth selection, single substitutions
# Starting sequence: PYL1, truncated, DHFR fusion (Arabidopsis thaliana); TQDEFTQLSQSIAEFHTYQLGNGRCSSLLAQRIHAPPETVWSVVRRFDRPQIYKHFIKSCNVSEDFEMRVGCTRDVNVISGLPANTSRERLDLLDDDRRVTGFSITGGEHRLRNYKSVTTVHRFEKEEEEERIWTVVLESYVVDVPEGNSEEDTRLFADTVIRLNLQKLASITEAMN; partner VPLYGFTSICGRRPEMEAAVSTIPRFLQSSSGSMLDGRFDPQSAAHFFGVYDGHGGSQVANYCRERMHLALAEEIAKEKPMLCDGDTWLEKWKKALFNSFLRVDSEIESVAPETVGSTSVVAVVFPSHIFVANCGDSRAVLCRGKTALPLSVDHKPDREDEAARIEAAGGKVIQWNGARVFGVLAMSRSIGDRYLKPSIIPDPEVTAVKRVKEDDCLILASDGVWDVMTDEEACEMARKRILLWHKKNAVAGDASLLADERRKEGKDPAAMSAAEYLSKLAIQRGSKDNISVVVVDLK
Change,relative binding score [%]
C25V,61.5
V62R,0.438
N177K,24.6
E174M,0.264
E89T,-7.1
A35D,-0.0147
A30E,-6.33
T17A,-0.219
S42I,-1.02
R49H,3.31
F47D,-6.66
V121D,-2.77
E64I,5.6
V137K,-1.69
G148N,-13.7
L82M,39.3
I12M,3.64
T1Y,40.1
W41Y,0.629
G108C,3.5
I57V,13.9
V70T,4.11
Q31M,1.56

# Study 2 — method: aptamer microarray, sandwich; form: DNA with 2'F-ANA; medium: in vitro; tested at: 200 nM; with: Cy3 exosite-II aptamer, 400 nM; reading: higher = stronger binding; sequence: GGTTGGTGTGGTTGG
# Target: Prothrombin, mature alpha-thrombin (F2, Homo sapiens, UniProt P00734)
# Setting: whole 15-mer aptamer, many near background
Modification,mean fluorescence intensity [a.u.]
2'F-ANA at 1 2 4 6 7 10 11 12 14,62.9
2'F-ANA at 1 2 3 5 8 10 12,48.5
2'F-ANA at 1 2 6 8 9 10 11 12 13 14,47.3
2'F-ANA at 2 4 6 7 8 12 13 15,351
2'F-ANA at 6 7 9 11 12 14 15,178
2'F-ANA at 1 2 7 8 15,254
2'F-ANA at 1 4 5 6 7 8 10 13 14 15,45.6
2'F-ANA at 1 9 10 14 15,47.7
2'F-ANA at 1 7 8 9 11 12 13 14 15,70.8
2'F-ANA at 8 9 10 15,158
2'F-ANA at 2 3 5 7 8 11 12 13 14 15,123
2'F-ANA at 1 2 3 4 5 8 10 15,48.2
2'F-ANA at 2 3 4 5 6 8 11 13 14 15,62.1
2'F-ANA at 2 4 6 8 10 12 14 15,83.7
2'F-ANA at 3 5 7 10 11 14,64.7
2'F-ANA at 1 2 5 11 12 13,121
2'F-ANA at 2 3 5 8 9 10 14 15,147
2'F-ANA at 5 8 13,60.7
2'F-ANA at 2 3 4 9 10 13 14 15,168
2'F-ANA at 3 4 5 7 9,101
2'F-ANA at 2 4 5 6 7 8 9 10 12,53.6
2'F-ANA at 2 3 4 5 7 8 10 11 12,58.8
2'F-ANA at 3 4 6 8 10 11 12 14,166
2'F-ANA at 1 5 7 8 9 10 13 15,59.5
2'F-ANA at 3 4 9 11 12 14 15,313

# Study 3 — method: RNA Bind-n-Seq; form: RNA; medium: in vitro; tested at: 365 nM; reference: no-protein control; reading: higher = stronger binding
# Target: RNA binding protein fox-1 homolog 2, RRM domain, GST-SBP tag (RBFOX2, Homo sapiens, UniProt O43251-10, residues 100-194)
# Setting: natural RNA segment, single round, ends assumed
# Shared flanks, not repeated: GGGAGUUCUACAGUCCGACGAUC … UGGAAUUCUCGGGUGCCAA
# Residues (chain): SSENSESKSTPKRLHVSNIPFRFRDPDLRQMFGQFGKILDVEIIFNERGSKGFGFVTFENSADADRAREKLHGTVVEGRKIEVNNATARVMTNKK
Sequence,RBNS enrichment (R)
UUAGUUGUAGCUGCCAUGCUCAGAAUUGCCUUUUGAGAGCUGAAGCAAGGUGCUUACUGUCACCUGAUGCCAUACACAUGGUCCCAGGCCCACACCCGGGGGGCCUCUGU,0.494
UCAGUGUUUUGUACUUCACUGAAUUGUGAUGGUUAGAAACUUCGUGGAUAGUUUGUGGAAAUCAUCCAAUUAAACAUACUGCUUAAAACAGUGUUGCUGUGACUUCAGAG,0.339
ACCCCAUAGCUGGAGGCCUGUGGUGCCAGAAGCCCAGAUUAGGGUGGCUGUCCAUCCCUGGAUAGCUAUUUGCACGAAUCAUGGACAUAAAUCCAAGUUGAAGAAGAUCA,2.59
ACCACCUGUGUGCCUGGUGUCUGUAGAAGCCAGCAGGAGGCUGUUAGAUCUCCUGGGCCGGGCGUUCCAAACAGUUGUGAGCUACUGUGUGAGUGCUAGGAGCAAACCUG,0.302
CCUAAGCCGUUUGUACCUUAGUUUUAGCGUUCGGCCUCACCUAGCAAUCAAGGGCCCGUUUGGAGAAGCAGAAAUGAUUCCCUCCAGUGCCCUGUCUACCUUCCCCAGGC,0.254
UUUCUUUUUUAAAAGAAAAAACUUGAAAGAACACUUCUAAGCCUAAGUGUGUGAUACAGUUUGUUACUUUUAAGUACAUUUUAAUAAUUUCAGACAUCUGCAUUUUUAUU,1.09
AAGACCUGACGUACUCUGGUUAGGUUAGGACUUGCCCUCGUGGUGGAAACUUUUCUUAAAAAGUUAUAACCAACUUUUCUAUUAAAAGUGGGAAUUAGGAGAGAAGGUAG,0.351
CUGAGGCUGACUUCAGCUCCUGGACACCCUUAGAAUUCCUAGUUGGAACUUUCCAUGACUGGAUCACAGGGAAAAACCGACCGAGCUCAGGAAGCCUAAUCCAGGUGGUA,0.254

# Study 4 — method: protein binding microarray; form: double-stranded DNA, one strand shown; medium: in vitro; tested at: not given; reference: not given; reading: higher = stronger binding
# Target: Histone acetyltransferase KAT6A, winged helix 1, GST fusion (KAT6A, Homo sapiens, UniProt Q92794, residues 1-85)
# Setting: 8-mer, flanks averaged, mean of 2 arrays, mostly near background
# Target sequence (chain): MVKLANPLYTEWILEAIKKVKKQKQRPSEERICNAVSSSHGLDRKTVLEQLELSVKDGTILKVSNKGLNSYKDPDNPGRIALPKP
Sequence,E-score
AGTCCACT,-0.371
AAACACAT,-0.222
AGGTCTTC,-0.105
TCATTAGA,-0.0869
ACAAATCC,-0.131
GAGCGAAC,-0.0284
CTTCACCC,0.117
CAAGGATG,-0.216
GTCGACTA,-0.102
ACCCCGAG,0.0227
GCTCCCAC,-0.032
ACTTTCAA,-0.0855
CCTTATCA,-0.0636
GAATAGAA,-0.239
GCGACCGA,0.121
CTGGGTCC,-0.163
GTAAAGAC,-0.0989
GCGCACCA,0.303
GATGCATA,-0.0612
ATATAACG,-0.0742
CGTAATTA,0.123
ACATCCCC,0.0517
